Published values gathered from unrelated publications.
Numbered parts are unrelated; each lists some results of a single study.

Series 1 — method: RNAcompete; form: RNA; medium: in vitro; concentration: 20 nM; notes: 7-mer, probes averaged, single round; baseline: mean of 7-mers; reading: higher = stronger binding
Target: PABPC1L2, full length, GST fusion (mouse, UniProt A0ABA7IW68)
Construct (chain): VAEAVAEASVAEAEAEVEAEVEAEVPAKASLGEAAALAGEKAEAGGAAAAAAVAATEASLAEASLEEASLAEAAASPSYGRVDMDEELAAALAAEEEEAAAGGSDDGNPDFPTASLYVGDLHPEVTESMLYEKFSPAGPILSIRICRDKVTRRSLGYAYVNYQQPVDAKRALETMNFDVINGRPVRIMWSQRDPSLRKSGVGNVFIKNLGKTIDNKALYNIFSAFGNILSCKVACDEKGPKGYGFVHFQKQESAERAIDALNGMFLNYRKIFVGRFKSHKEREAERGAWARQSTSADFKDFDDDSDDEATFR
Oligonucleotide | 7-mer Z-score
CUUUGUG | -0.452
CUCGCAC | -0.344
GGCAUGC | -0.0609
CGGACGA | -0.0246
ACGAGUC | -0.295
CAAGUCA | -0.18
AGACGUC | -0.364
ACAAGGG | 0.588

Series 2 — observed: enzyme activity; action: inhibitor; concentration: 20 µM; notes: hit confirmation
Target: Replicase polyprotein 1ab, main protease (rep, Severe acute respiratory syndrome coronavirus 2, UniProt P0DTD1)
Compound | inhibition [%]
COc1cc(/C=C(\C#N)C(N)=O)cc(CSc2nc3ccccc3s2)c1O | 23
CC[C@@H](c1ccc(F)c(F)c1)n1c(C(=O)OC)c(-c2ccno2)[nH]c1=S | 22.3
CC1=C(C(=O)O)N2C(=O)[C@@H](NC(=O)[C@H](N)C3=CCC=CC3)C2SC1 (some centres unmarked) | -8.9
CN(CCCN1c2ccccc2CCc2ccccc21)CC(=O)c1ccc(Cl)cc1 | 68.1

Series 3 — method: RNA Bind-n-Seq; form: RNA; medium: in vitro; concentration: 200 nM; notes: whole 134-nt RNA, ends assumed; together with: 150 mM KCl; baseline: input library; reading: higher = stronger binding
Target: Ras GTPase-activating protein-binding protein 1, full length (G3BP1, Homo sapiens, UniProt Q13283)
Sequence of UniProt Q13283 (whole entry, looked up): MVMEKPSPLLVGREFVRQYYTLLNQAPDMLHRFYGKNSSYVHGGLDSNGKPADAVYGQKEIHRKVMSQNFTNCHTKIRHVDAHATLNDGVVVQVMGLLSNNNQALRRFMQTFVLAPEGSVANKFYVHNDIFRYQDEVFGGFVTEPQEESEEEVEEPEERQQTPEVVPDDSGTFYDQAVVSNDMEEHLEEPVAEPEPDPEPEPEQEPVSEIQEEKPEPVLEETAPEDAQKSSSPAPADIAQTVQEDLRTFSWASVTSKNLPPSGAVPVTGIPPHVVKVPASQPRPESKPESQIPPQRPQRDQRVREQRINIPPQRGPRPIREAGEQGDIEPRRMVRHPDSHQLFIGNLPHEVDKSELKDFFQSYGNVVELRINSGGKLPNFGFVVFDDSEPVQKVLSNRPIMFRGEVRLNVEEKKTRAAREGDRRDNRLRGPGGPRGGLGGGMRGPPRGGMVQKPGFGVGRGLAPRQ
Oligonucleotide | log2 enrichment
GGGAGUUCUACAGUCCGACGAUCCUUCUUGCAUGCUCGGCUCCGGACAGCUACGCUUCGGCAUGACGCAGACGGGCAGGCCACCCUGUUGAACCUCCUGCUGCGGAAUUACCUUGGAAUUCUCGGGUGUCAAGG | -0.202
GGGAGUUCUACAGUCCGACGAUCAAGUCCUGUGCUACACAUCGUAUGUACCGAAUCGGGGUUUUUGGGGAGGGGUGGGGAAAGUAUUAUGUUACGCCGUUCGGAUCUGCACUUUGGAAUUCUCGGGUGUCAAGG | 0.838
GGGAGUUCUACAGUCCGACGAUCAGUCCUGUGCUACACAUCGUAUGUACCGAAUCGGCCCCCGGGCCCCCGGCCCCCGGGAAAGUAUUAUGUUACGCCGUUCGGAUCUGCACUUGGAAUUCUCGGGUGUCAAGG | -0.859
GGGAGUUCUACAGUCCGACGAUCACCAUGCAGGUGGGCAUCUUUGGGAAGUGGGGCAAGGGGGGGAUAGGGAGGGGGGUAACACUUUCGGAACAGGUGGUCCCAGGUCGUUUCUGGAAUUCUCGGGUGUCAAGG | 1.78
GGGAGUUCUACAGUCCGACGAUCAGUCCUGUGCUACACAUCGUAUGUACCGAAUCGGGGAAAAGGGAAAAGGGGAAAAGGGAAAGUAUUAUGUUACGCCGUUCGGAUCUGCACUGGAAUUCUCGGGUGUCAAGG | 0.0192
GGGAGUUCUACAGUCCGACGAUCCAAGUCCUGUGCUACACAUCGUAUGUACCGAAUCGGGUUUUUGGGUUUGGGUGGGAAAGUAUUAUGUUACGCCGUUCGGAUCUGCACUUCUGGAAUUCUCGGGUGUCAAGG | 0.497
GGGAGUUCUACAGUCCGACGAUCGCAGGAAGUAAAAACAAAUGGAAAUGCUUCGGAUAGUGGCAGGGGUGGAGGUUGCUAAGGAAAGGGUGGGAUGGGAGUGGGUAAAGAGUUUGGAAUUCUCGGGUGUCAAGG | 0.826
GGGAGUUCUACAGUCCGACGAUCUGGGAGGUGGAUUUUGUUUAUUUUUUUACCUCAUUUCCAGGGGUGGGAAUUUUUUUUUAAUAUGUGUCAUGAAUAAAGUUGUUUUUGAAAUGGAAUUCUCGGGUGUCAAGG | -0.231

Series 4 — cell line: HEK-293T/ACE2; concentration: concentration not given; time: 16 (unit not given); baseline: vehicle
SMILES | viability [%]
CN(C)CCCC1(c2ccc(F)cc2)OCc2cc(C#N)ccc21 (centres unmarked) | 101
Nc1cc(N2CCCCC2)nc(N)[n+]1[O-] | 99.5
O=C(Nc1c(Cl)cncc1Cl)c1ccc(OC(F)F)c(OCC2CC2)c1 | 101

Series 5 — action: inhibitor; concentration: 20 µM
Target: Replicase polyprotein 1ab, nsp13 helicase (rep, Severe acute respiratory syndrome coronavirus 2, UniProt P0DTD1)
SMILES | inhibition
N=C(N)NCCC[C@H](N)C(=O)O | 5.79%
CN(C)CCC=C1c2ccccc2CCc2ccccc21 | -4.18%
CCc1ccc(OCc2ccccc2C(=O)Nc2ccc3nc(C)cc(N)c3c2)cc1 | 3.83%
C/C=C/C/C=C/CCC(=O)[C@H]1O[C@H]1C(N)=O | -0.14%
NCC(O)c1ccc(O)cc1 (centres unmarked) | -6.03%
CCCCCCCCNC(=O)/C(C#N)=C/c1cn(CCCN(C)C)c2ccccc12 | 3.14%
O=C1NCN(c2ccccc2)C12CCN(CC1COc3ccccc3O1)CC2 (centres unmarked) | 7.77%
Cc1ncc(C[n+]2csc(CCO)c2C)c(N)n1 | -0.27%
COc1ccc(C(=O)c2ccc(C)cc2)c(O)c1 | 6.6%
CCc1ccc(Cc2ccc3c(c2)[C@]2(OC3)O[C@H](CO)[C@@H](O)[C@H](O)[C@H]2O)cc1 | 5.35%
CC[N+](C)(CC)CCOC(=O)C1c2ccccc2Oc2ccccc21 | 8.86%
CCN1CCCC1CNC(=O)c1cc(S(=O)(=O)CC)c(N)cc1OC (centres unmarked) | -1.61%
Oc1ccc2ccccc2c1Cc1c(O)ccc2ccccc12 | 7.89%
O=C(O)CCc1nc2ccccc2[nH]1 | 5.22%
COc1cc2c(cc1OC)CN(CCc1ccc(NC(=O)c3cc(OC)c(OC)cc3NC(=O)c3cnc4ccccc4c3)cc1)CC2 | 5.71%
COc1ccc(/C=C/C(=O)Nc2ccccc2C(=O)O)cc1OC | 0.52%
COc1ccc(O)cc1 | 6.98%
CCn1c(-c2ccc(Cl)cc2)n[nH]c1=O | 11.4%
C=CCN1CC[C@]2(C)c3cc(O)ccc3C[C@@H]1[C@@H]2C | 7.89%
O=C(/C=C/c1cccc(S(=O)(=O)Nc2ccccc2)c1)NO | 11.1%
CC(C)CCC[C@@H](C)[C@H]1CC[C@H]2[C@@H]3CCC4=CC(=NO)CC[C@]4(C)[C@H]3CC[C@]12C | 5.63%
CCCCCCCCCCCCCCCCCCCCCCCCCCCCO | -5.8%
Cn1nnnc1SCC1=C(C(=O)O)N2C(=O)[C@@H](NC(=O)[C@H](OC=O)c3ccccc3)[C@H]2SC1 | -2.72%
C[C@]12CC[C@@H]3c4ccc(O)cc4CC[C@H]3[C@@H]1CC[C@@H]2OC(=O)CCC1CCCC1 | 0%
CN(C)CCC(c1ccc(Br)cc1)c1ccccn1 (centres unmarked) | 3.41%

Series 6 — method: protein-binding microarray; form: double-stranded DNA, one strand shown; medium: in vitro; concentration: 2200 nM top; notes: 60-bp whole probe; together with: salmon DNA 0.4 mg/ml; baseline: random background probes; reading: higher = stronger binding; all sequences stand within: GCCTAGCAC … GTCTTGATTCGCTTGACGCTGCTG
Target: Interferon regulatory factor 7, full length, phosphomimetic (IRF7, Homo sapiens, UniProt Q92985, residues 1-503, S471D/S472D/S475D/S476D/S477D/S483D/S484D/S487D)
Sequence of UniProt Q92985 (whole entry, unmodified, looked up): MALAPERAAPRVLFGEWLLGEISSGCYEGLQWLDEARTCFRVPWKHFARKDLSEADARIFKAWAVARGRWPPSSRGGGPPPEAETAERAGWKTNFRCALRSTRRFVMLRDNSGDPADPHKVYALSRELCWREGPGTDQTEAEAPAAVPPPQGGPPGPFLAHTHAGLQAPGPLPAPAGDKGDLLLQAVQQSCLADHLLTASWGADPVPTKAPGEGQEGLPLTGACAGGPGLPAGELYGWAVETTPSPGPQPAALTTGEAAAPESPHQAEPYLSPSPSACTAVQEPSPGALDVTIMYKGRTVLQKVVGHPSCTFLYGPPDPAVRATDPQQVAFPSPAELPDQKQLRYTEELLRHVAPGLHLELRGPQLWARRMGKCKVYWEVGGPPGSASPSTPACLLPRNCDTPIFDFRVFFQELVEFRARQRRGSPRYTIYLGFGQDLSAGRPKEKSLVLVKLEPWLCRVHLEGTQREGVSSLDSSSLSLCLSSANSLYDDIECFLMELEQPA
Oligonucleotide | fitted relative affinity [z-score]
CATTGCCTGTTTTTCCCCTGGTGCTAG | 1.58
TTAGAACTGAGACTGGCTTAGTGCTAG | -0.496
TCACATCTAGTTCTGCTACTGTGCTAG | 1.61
GTAGAACTGGGGACTGGATTAGTGCTA | -0.359
TCAAATGTCCTTTCTCCAACTGTGCTA | 1.26
TCACATTTTTCCCTCTGACTGTGCTAG | 2.66
GACGATATCAGTTTTGAGACGTGCTAG | 0.696
TCATTTATGTACTCTCTCACTGTGCTA | 1.72

For quick reference, copied from above (series 5):
SMILES | inhibition
O=C1NCN(c2ccccc2)C12CCN(CC1COc3ccccc3O1)CC2 (centres unmarked) | 7.77%
Cc1ncc(C[n+]2csc(CCO)c2C)c(N)n1 | -0.27%
COc1ccc(C(=O)c2ccc(C)cc2)c(O)c1 | 6.6%
CCc1ccc(Cc2ccc3c(c2)[C@]2(OC3)O[C@H](CO)[C@@H](O)[C@H](O)[C@H]2O)cc1 | 5.35%
CC[N+](C)(CC)CCOC(=O)C1c2ccccc2Oc2ccccc21 | 8.86%
CCN1CCCC1CNC(=O)c1cc(S(=O)(=O)CC)c(N)cc1OC (centres unmarked) | -1.61%
Oc1ccc2ccccc2c1Cc1c(O)ccc2ccccc12 | 7.89%
